Published values from different studies.
Protocols differ between the studies behind these lines. Values joined by “and” are separate records of one study, mostly repeats; a detail may differ.

CC1(C)C(/C=C/C2=C(Cl)C(=C/C=C3/N(CCCCCC(=O)O)c4ccccc4C3(C)C)/C[N+](C)(C)C2)=[N+](CCCCCC(=O)O)c2ccccc21
solubility (absorbance; water): ≥ 1000 µM

CC(=O)N[C@@H](CCC(N)=O)C(=O)N[C@@H](CCC(N)=O)C(=O)N[C@@H](CCCCN)C(=O)N[C@@H](Cc1ccccc1)C(=O)N[C@@H](CCC(N)=O)C(=O)OCC(=O)N[C@@H](CCC(N)=O)C(=O)N[C@@H](Cc1ccccc1)C(=O)N[C@@H](CCC(=O)O)C(=O)N[C@@H](CCC(N)=O)C(=O)N[C@@H](CCC(N)=O)C(N)=O
solubility (water): ≥ 10000 µM

C[N+](C)(C)C[C@@H](O)CC(=O)O.O=C([O-])[C@H](O)Cc1ccccc1
solubility (water): 1460 mg/mL

OC(CN1CCC2(CC1)CC(O)c1ccc3ccccc3c1O2)c1ccc(F)c(F)c1 (stereo not drawn)
solubility (absorbance; aqueous buffer; pH 6.2): > 0.042 mg/mL

O=C1c2ccccc2C2(c3ccc(O)cc3Oc3cc(O)ccc32)N1CCS(=O)(=O)O
solubility (HPLC; water; 24 h, 25 °C): 10.9 mg/mL

CCc1cnc(NC(=O)c2cc(S(=O)(=O)N3CCOCC3)ccc2N(C)C2CCCC2)s1
solubility (aqueous buffer; pH 7.4): 23.8 µM

COc1ccc2ccc(C(=O)Nc3ccc(CN)cc3)c(O)c2c1
solubility (PBS; pH 7.4): 746 µM

COc1cc(C)c(-c2ccc(O)c3c2C[C@@H](C)N[C@@H]3C)c2cccc(O)c12 (single isomer, unassigned)
solubility (shake flask; PBS; 24 h, pH 6.5, 25 °C): 180 µM

CC1(C)CNC(=O)c2ccccc21
solubility (aqueous buffer; pH 7.4): > 400 µM

CCn1cc(C(=O)NCCNCCO)c(=O)c2cc(OCc3ccc(C(F)(F)F)cc3)c(C(F)(F)F)cc21
solubility (shake flask; PBS; 24 h, pH 6.5, 25 °C): 10 µM

O=C1CCCCC(=O)Nc2ccc3ncc(cc3c2)C(=O)NCc2cccc(c2)CNC(=O)c2cnc3ccc(cc3c2)N1
solubility (aqueous buffer; pH 7.4): 3 µM

O=C(Nc1ccc(OC(F)(F)F)cc1)N1CCC(Cc2cccc(Oc3ccc(C(F)(F)F)cn3)c2)CC1
solubility (water; 48 h, 37 °C): 0.00013 µM

O=C(Nc1ccccc1O)c1ccc(-c2ccc(Cl)cc2Cl)o1
solubility (aqueous buffer; pH 6.5): < 5 µM

CC(C)=CCCC(C)(O)C1CCC2(C)C1C(O)CC1C3(C)CCC(OC4OC(COC(=O)CCCCCCCCCCN5C(=O)C=CC5=O)C(O)C(OC(=O)CCCCCCCCCCN5C(=O)C=CC5=O)C4O)C(C)(C)C3CCC12C (stereo not drawn)
solubility (water; 24 h, 37 °C): 0.163 mg/mL

CNC(=S)Nc1cccc([N+](=O)[O-])c1
solubility (water): 380 µM

CC12N3Cc4c(c(OCCCS(=O)(=O)[O-])c5ccccc5c4OCCCS(=O)(=O)[O-])CN1C(=O)N1CN4C(=O)N5Cc6c(c(OCCCS(=O)(=O)[O-])c7ccccc7c6OCCCS(=O)(=O)[O-])CN6C(=O)N(CN(C3=O)C12C)C4(C)C65C.[Na+].[Na+].[Na+].[Na+] (stereo not drawn)
solubility (NMR; aqueous buffer): 343000 µM and > 300000 µM

CC1=N[C@H](C)Cc2c(-c3ccc(C)cc3)ccc(O)c21
solubility (shake flask; PBS; 24 h, pH 6.5, 25 °C): 180 µM

COc1cc(C2c3cc4c(cc3C(OC3OC5COC(C)OC5C(O)C3O)C3COC(=O)C23)OCO4)cc(OC)c1OC(=O)OC1C=CCCC(C)(C(=O)NC(CC(=O)O)C(=O)O)CC1 (stereo not drawn)
solubility (PBS): 5 mg/mL

CC(C)CCCC(C)CCCC(C)CCOC1O[C@H](CO)[C@@H](O)[C@H](O)[C@@H]1O (stereo partly drawn)
solubility (water): 19.7 µM

O=C(C1CCN(c2nnnn2-c2ccccc2)CC1)N1CCCc2ccccc21
solubility (PBS; 2 h, pH 7.4, 25 °C): 7 µM

CC(=O)c1c(O)c(C)c(O)c2c1OC1=CC(=O)/C3=C(/C)N[C@H](C(=O)O)CC1=CC=C(O)C=C[C@@]2(C)C3=O
solubility (HPLC; water; 24 h, 25 °C): 1920 µM

CC(C)CCCC(C)CCCC(C)CCOC1OC[C@H](O)[C@H](O)[C@H]1O (stereo partly drawn)
solubility (water): 27.3 µM

CC(=O)c1c(O)c(C)c(O)c2c1OC1=CC(=O)/C3=C(/C)N[C@H](C(=O)O)CC1=CC=CC=C[C@]2(C)C3=O
solubility (HPLC; water; 24 h, 25 °C): 4360 µM

COc1cc(C(C)C)c(Oc2cnc(N)nc2N)cc1I
solubility (water): 100 µM

Cc1ccc(C(=O)C2=C(O)C(=O)N(CC(C)O)C2c2ccc(C(C)C)cc2)cn1 (stereo not drawn)
solubility (aqueous buffer; 27 h, pH 7.4): 4900 µM

CCCS(=O)(=O)N1CCN(Cc2ccc(NC(=O)c3ccc(-c4cc(NC(=O)C5CC5)ccc4OC(F)(F)F)cc3)cc2)CC1
solubility (aqueous buffer; pH 7): < 0.0016 mg/mL

CC(=O)N[C@@H](CCC(N)=O)C(=O)N[C@@H](CCC(N)=O)C(=O)N[C@@H](CCCCN)C(=O)N[C@@H](Cc1ccccc1)C(=O)N[C@@H](CCC(N)=O)C(=O)O[C@@H](Cc1ccccc1)C(=O)N[C@@H](CCC(N)=O)C(=O)N[C@@H](Cc1ccccc1)C(=O)N[C@@H](CCC(=O)O)C(=O)N[C@@H](CCC(N)=O)C(=O)N[C@@H](CCC(N)=O)C(N)=O
solubility (water): ≥ 15000 µM

COc1ccc(C(=O)n2c(C)c(Cc3ccccc3O[C@@H](C)C(=O)O)c3cc(OC(F)(F)F)ccc32)cc1
solubility (aqueous buffer; pH 7.4): 30 µM

C[n+]1cc(C(=O)NCc2cccc(CNC(=O)c3cc4ccccc4[n+](C)c3)c2)cc2ccccc21
solubility (aqueous buffer; pH 7.4): 230 µM

CC(=O)OC1C(=O)C2(C)C(O)CC3OCC3(OC(C)=O)C2C(OC(=O)c2ccccc2)C2(O)CC(OC(=O)C(OC(=O)OC3C=CCCC(C)(C(=O)NCC(=O)O)CC3)C(NC(=O)c3ccccc3)c3ccccc3)C(C)=C1C2(C)C (stereo not drawn)
solubility (PBS): 1 mg/mL

N#CC(C#N)=NNc1ccc(-c2ccc(F)cc2F)cc1
solubility (NMR; aqueous buffer): < 500 µM

O=C([O-])CN1CCNCCNCCN(C(C(=O)[O-])c2ccc(C(=O)O)cc2)CC1.[Mn+2] (stereo not drawn)
solubility (water): 540 mg/mL

C[n+]1cc(NC(=O)c2ccc3ccc4ccc(C(=O)Nc5cc6ccccc6[n+](C)c5)nc4c3n2)cc2ccccc21
solubility (aqueous buffer; pH 7.4): 107 µM

C[C@H](CCC(=O)NCCc1ccc(-c2ccccc2)cc1)[C@H]1CC[C@H]2[C@@H]3CC[C@@H]4CC(=O)CC[C@]4(C)[C@H]3CC[C@]12C
solubility (simulated gastric fluid; 48 h, pH 1, 25 °C, acidic): 9 µM

O=C(/C=C(O)/C=C/c1cccs1)/C=C/c1cccs1
solubility (shake flask; aqueous buffer; 90 min, pH 6.8, 37 °C): 10.7 µM

N#Cc1c[nH]c2c(C(=O)N3CCN(CCc4ccc(F)cc4)CC3)cnn12
solubility (shake flask; aqueous buffer; pH 6.8): 226 µM

COc1ccc2c(O)c(C(=O)Nc3ccc(CN)cc3)ccc2c1
solubility (PBS; pH 7.4): 254 µM

CCn1cc(-c2ccnc(Nc3ccc(N4CCNCC4)cc3)n2)c(-c2cccnc2)n1
solubility (aqueous buffer; pH 7.4): 0.0938 mg/mL

CC12N3Cc4c(OCCCS(=O)(=O)[O-])ccc(OCCCS(=O)(=O)[O-])c4CN1C(=O)N1CN4C(=O)N5Cc6c(OCCCS(=O)(=O)[O-])ccc(OCCCS(=O)(=O)[O-])c6CN6C(=O)N(CN(C3=O)C12C)C4(C)C65C.[Na+].[Na+].[Na+].[Na+] (stereo not drawn)
solubility (NMR; aqueous buffer): 396000 µM

CCC(C)n1c(C(=O)Nc2cnc(C(=O)NC)n(CC(C)C)c2=O)ncc(NC(=O)c2ncc(NC(=O)c3ccccc3)c(=O)n2Cc2ccc(OC)cc2)c1=O (stereo not drawn)
solubility (PBS; 24 h, pH 7.4, 25 °C): 8 µM

O=c1c2ccccc2[se]n1CCCCCCn1[se]c2ccccc2c1=O
solubility (HPLC; water; 24 h, 25 °C): 0.001 to 0.002 mg/mL

O=C(NCCNCCO)c1cn(Cc2ccc(F)cc2)c2cc(Cl)c(OCc3ccc(C(F)(F)F)cc3)cc2c1=O
solubility (shake flask; PBS; 24 h, pH 6.5, 25 °C): < 5 µM

CCCn1c(=O)c2[nH]c(-c3ccc(N(C)C(=O)c4ccc(C(F)(F)F)nc4)nc3)nc2n(CCC)c1=O
solubility (water): 0.003 mg/mL

O=c1c2cc(-c3ccc(Cl)cc3)nc(-c3cccnc3)c2ncn1C1CCC(O)CC1 (stereo not drawn)
solubility (aqueous buffer): < 0.1 mg/mL

CCn1cc(C(=O)NCCNCCO)c(=O)c2cc(OCc3ccc(C(C)(C)C)cc3)c(Cl)cc21
solubility (shake flask; PBS; 24 h, pH 6.5, 25 °C): 25 µM

COc1cc(/C=C/C(=O)C(Cc2ccc(O)c(OC)c2)C(=O)/C=C/c2ccc(O)c(OC)c2)ccc1O
solubility (HPLC; water): < 0.001 mg/mL

COc1ccc(-c2ccc3oc(-c4ccc(OC)cc4)c(C#CC4(O)CCCCC4)c3c2)cc1
solubility (aqueous buffer): < 0.001 mg/mL

CC12N3Cc4c(OCCCS(=O)(=O)[O-])ccc(OCCCS(=O)(=O)[O-])c4CN1C(=O)N1CN4C(=O)N5CN6C(=O)N7Cc8c(OCCCS(=O)(=O)[O-])ccc(OCCCS(=O)(=O)[O-])c8CN8C(=O)N(CN9C(=O)N(CN(C3=O)C12C)C4C95)C6(C)C87C.[Na+].[Na+].[Na+].[Na+] (stereo not drawn)
solubility (NMR; aqueous buffer): 102000 µM

CCC1Sc2ccc(S(=O)(=O)CCC(=O)Nc3cccc4ccccc34)cc2NC1=O (stereo not drawn)
solubility (aqueous buffer): 30 µM

C[N+](C)(C)CCO.O=C(O)[C@H](O)Cc1ccccc1.O=C([O-])[C@H](O)Cc1ccccc1
solubility (water): 1480 mg/mL

COc1cc(Cc2cnc(N)nc2N)cc(OC)c1OC.O=c1[nH]cc(F)c(=O)[nH]1
solubility (shake flask; aqueous buffer): 3.09 mg/mL

COc1ccc(-c2oc3ccc(-c4cc(OC)c(OC)c(OC)c4)cc3c2C#CC2(O)CCCCC2)cc1
solubility (aqueous buffer): < 0.001 mg/mL

Cc1c(-c2ccc(Cc3ccc(OC(F)(F)F)cc3)cc2)[nH]c2cccc(F)c2c1=O
solubility (simulated gastric fluid; 24 h, pH 2, acidic): 0.68 µM

O=C1CCCCC(=O)Nc2ccc3oc(cc3c2)C(=O)NCc2cccc(c2)CNC(=O)c2cc3cc(ccc3o2)N1
solubility (aqueous buffer; pH 7.4): < 2 µM

A few entries again:
COc1ccc2c(O)c(C(=O)Nc3ccc(CN)cc3)ccc2c1
solubility (PBS; pH 7.4): 254 µM

CC(C)CCCC(C)CCCC(C)CCOC1O[C@H](CO)[C@@H](O)[C@H](O)[C@@H]1O (stereo partly drawn)
solubility (water): 19.7 µM

C[n+]1cc(NC(=O)c2ccc3ccc4ccc(C(=O)Nc5cc6ccccc6[n+](C)c5)nc4c3n2)cc2ccccc21
solubility (aqueous buffer; pH 7.4): 107 µM

O=C(C1CCN(c2nnnn2-c2ccccc2)CC1)N1CCCc2ccccc21
solubility (PBS; 2 h, pH 7.4, 25 °C): 7 µM

C[N+](C)(C)CCO.O=C(O)[C@H](O)Cc1ccccc1.O=C([O-])[C@H](O)Cc1ccccc1
solubility (water): 1480 mg/mL

CC1(C)CNC(=O)c2ccccc21
solubility (aqueous buffer; pH 7.4): > 400 µM

C[C@H](CCC(=O)NCCc1ccc(-c2ccccc2)cc1)[C@H]1CC[C@H]2[C@@H]3CC[C@@H]4CC(=O)CC[C@]4(C)[C@H]3CC[C@]12C
solubility (simulated gastric fluid; 48 h, pH 1, 25 °C, acidic): 9 µM
